Published values of several laboratories.
A part holds a random share of what one study measured. Positions count from the first letter of the parent shown.

Sample 1
Target: CCND1, cyclin fold, Cln2 fusion (human)
Technique: yeast growth competition, sequencing
Matrix: yeast
Setting: weak parent motif
Baseline: not given
Direction: higher = stronger binding
Starting sequence: CDC25A docking peptide (human); PPHRRRLLFACSP
Variant | normalised enrichment score
CPHRRRLLFACSP [P1C] | -0.276
PPHRRRWLFACSP [L7W] | 0.479
PPHRRRLLFACEP [S12E] | 0.274
WPHRRRLLFACSP [P1W] | 0.321
PPFRRRLLFACSP [H3F] | 0.546
PPHRRRLLFACVP [S12V] | 0.475
QPHRRRLLFACSP [P1Q] | -0.0939
PDHRRRLLFACSP [P2D] | -0.133
PPHRRRLLFAQSP [C11Q] | 0.35
PPHRRRLLEACSP [F9E] | 0.108
PPHRDRLLFACSP [R5D] | 0.0776
PPNRRRLLFACSP [H3N] | 0.167
PPHRRRLLFACSK [P13K] | -0.174
PAHRRRLLFACSP [P2A] | 0.156
PPHRRRLLNACSP [F9N] | -0.0301
PPHRRRLMFACSP [L8M] | -0.235

Sample 2
Target: Histone acetyltransferase KAT6A, winged helix 2, GST fusion (KAT6A, Homo sapiens, UniProt Q92794, residues 85-181)
Technique: protein binding microarray
Molecule type: double-stranded DNA, one strand shown
Matrix: in vitro
Concentration: not given
Setting: 8-mer, flanks averaged, mean of 2 arrays, mostly near background
Baseline: not given
Direction: higher = stronger binding
Residues (chain): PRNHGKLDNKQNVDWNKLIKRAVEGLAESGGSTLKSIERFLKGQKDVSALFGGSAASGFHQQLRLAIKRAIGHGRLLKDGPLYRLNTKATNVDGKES
Sequence | E-score
GAGAAATA | 0.0669
CGGGCTCA | 0.017
AAATCTGT | -0.167
CGCGGAAA | 0.165
AACGTTGG | -0.143
CACACAAC | -0.0467
AGCTAAAC | 0.132
ATTAAGCG | -0.0426
AATTAAGA | 0.0743
ACAAGGGC | -0.0479
AAGGTTGG | -0.0972
AGGTAGGC | -0.071
ACTTATCA | -0.0906
CAAGCTAC | -0.0458
ACGGGGAG | -0.0236

Sample 3
Target: Ras GTPase-activating protein-binding protein 1, RRM domain (G3BP1, Homo sapiens, UniProt Q13283)
UniProt Q13283, sequence (whole entry, looked up): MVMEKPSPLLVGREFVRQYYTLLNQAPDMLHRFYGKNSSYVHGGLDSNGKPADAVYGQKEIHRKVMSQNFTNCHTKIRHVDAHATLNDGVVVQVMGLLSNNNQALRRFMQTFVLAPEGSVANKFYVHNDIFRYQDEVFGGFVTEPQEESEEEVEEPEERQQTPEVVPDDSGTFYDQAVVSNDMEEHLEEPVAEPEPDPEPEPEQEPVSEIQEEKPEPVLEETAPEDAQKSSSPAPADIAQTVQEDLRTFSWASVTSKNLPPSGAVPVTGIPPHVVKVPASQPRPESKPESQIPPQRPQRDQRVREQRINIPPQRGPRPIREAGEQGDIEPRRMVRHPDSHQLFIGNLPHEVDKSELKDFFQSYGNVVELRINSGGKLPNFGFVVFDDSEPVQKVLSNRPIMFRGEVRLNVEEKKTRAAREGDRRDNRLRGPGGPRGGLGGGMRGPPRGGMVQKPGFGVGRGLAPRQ
Technique: RNA Bind-n-Seq
Molecule type: RNA
Matrix: in vitro
Concentration: 1 µM
Setting: whole 134-nt RNA, ends assumed
Added: 150 mM KCl
Baseline: input library
Direction: higher = stronger binding
Sequence | log2 enrichment
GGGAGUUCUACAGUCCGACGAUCAAGUCCUGUGCUACACAUCGUAUGUACCGAAUCGGAAAAAAAGGAGGUUUUUUUGGAAAGUAUUAUGUUACGCCGUUCGGAUCUGCACUUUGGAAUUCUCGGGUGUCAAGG | -0.109
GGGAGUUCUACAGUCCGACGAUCAAGUCCUGUGCUACACAUCGUAUGUACCGAAUCGGAAAAAGGAAAAAGGGAAAAAGGAAAGUAUUAUGUUACGCCGUUCGGAUCUGCACUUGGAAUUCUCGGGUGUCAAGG | 0.0766
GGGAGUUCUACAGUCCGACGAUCCUCAAGUCCUGUGCUACACAUCGUAUGUACCGAAUCGGGGAAGGAAGGGAAGGAAAGUAUUAUGUUACGCCGUUCGGAUCUGCACUUCCAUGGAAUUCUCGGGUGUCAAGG | -0.276
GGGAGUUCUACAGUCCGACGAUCUUCAGGAUGAAGAUGCAUCAGGGGGCGAUCAAGAUCAGGAAGAAAGAAGAUGGAACAAAAGGACUCAGCAGAUGCUUCAUGGUCUUCAGGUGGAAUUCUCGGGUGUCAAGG | -0.224
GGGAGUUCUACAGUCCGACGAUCCAAGUCCUGUGCUACACAUCGUAUGUACCGAAUCGGCCCCGGGCCCCGGCCCCGGAAAGUAUUAUGUUACGCCGUUCGGAUCUGCACUUCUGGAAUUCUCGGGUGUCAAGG | -1.2
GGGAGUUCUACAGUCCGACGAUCAAGUCCUGUGCUACACAUCGUAUGUACCGAAUCGGUUUUUUUGGAAAAAGGUUUGGAAAGUAUUAUGUUACGCCGUUCGGAUCUGCACUUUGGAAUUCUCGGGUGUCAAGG | -0.635
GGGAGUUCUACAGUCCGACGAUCCACAGACAACACGCACCCACACAGACACAGAAAAAAGGGGUUGGGAUGGGGACAGGGUGCACAGCAGGGCGGGGUAGGACCCCAGCCCCUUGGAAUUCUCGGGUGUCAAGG | -0.141
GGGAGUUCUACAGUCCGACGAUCUGUGCUACACAUCGUAUGUACCGAAUCGGGAAAAAAAGGGGAAAAAAAGGGGAAAAAAAGGGGAAAGUAUUAUGUUACGCCGUUCGGAUCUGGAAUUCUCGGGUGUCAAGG | 0.227
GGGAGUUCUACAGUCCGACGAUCGUCCUGUGCUACACAUCGUAUGUACCGAAUCGGGGAAAAAGGGGUUUGGGGAAAGGGGAAAGUAUUAUGUUACGCCGUUCGGAUCUGCACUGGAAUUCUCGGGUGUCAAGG | 1.61

Single results of other studies
Substance | target | assay | test system | conditions | how to read | quantity | result
PhoQ, residues 284 288 289 292 302 303 AQGLTV | PhoP, residues 12 14 15 18 19 VQALL (Escherichia coli, UniProt P23836) | Sort-seq, item: YFP reporter | E. coli | PhoQ-PhoP variant library, added: 10 µM Mg2+ | baseline: high Mg2+ state, higher = stronger signaling | fold induction | 20.2

Repeated from above (sample 3):
Sequence | log2 enrichment
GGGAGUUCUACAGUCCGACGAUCAAGUCCUGUGCUACACAUCGUAUGUACCGAAUCGGAAAAAAAGGAGGUUUUUUUGGAAAGUAUUAUGUUACGCCGUUCGGAUCUGCACUUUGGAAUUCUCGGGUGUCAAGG | -0.109
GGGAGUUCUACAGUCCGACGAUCAAGUCCUGUGCUACACAUCGUAUGUACCGAAUCGGAAAAAGGAAAAAGGGAAAAAGGAAAGUAUUAUGUUACGCCGUUCGGAUCUGCACUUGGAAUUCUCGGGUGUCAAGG | 0.0766
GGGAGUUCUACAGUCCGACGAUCCUCAAGUCCUGUGCUACACAUCGUAUGUACCGAAUCGGGGAAGGAAGGGAAGGAAAGUAUUAUGUUACGCCGUUCGGAUCUGCACUUCCAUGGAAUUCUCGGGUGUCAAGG | -0.276
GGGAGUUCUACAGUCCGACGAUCUUCAGGAUGAAGAUGCAUCAGGGGGCGAUCAAGAUCAGGAAGAAAGAAGAUGGAACAAAAGGACUCAGCAGAUGCUUCAUGGUCUUCAGGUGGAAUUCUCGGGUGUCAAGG | -0.224
